Experimental data collected from several papers.
Compare with care: the assays were run in different laboratories.

Molecule	target or system	test	test system	setting	scale	measurement	value
Polymyxin B	Klebsiella pneumoniae	–	NCCP 16054	16 h, 37 °C, Mueller-Hinton broth	–	MIC	2 µM
colistin	Klebsiella pneumoniae	–	ATCC BAA-1705, KPC-2	–	–	MIC	≤ 0.12 µg/mL
Teicoplanin A2-2	Streptococcus pyogenes	–	–	–	–	MIC	0.12 µg/mL
colistin sulfate	Pseudomonas aeruginosa	broth microdilution	CMCC 10104	–	–	MIC	17.8 µM
insulin human	–	measured: NAV3 mRNA	uninfected mouse, brain	i.p., dose not given	relative to: PBS	fold change	1.1
tunicamycin	Pseudomonas aeruginosa	broth microdilution, EUCAST	DSM 1128	18 to 24 h, 37 °C	–	MIC	> 64 µg/mL
colistin	Klebsiella pneumoniae	broth microdilution	KPC-180 producing	–	–	MIC	32 µg/mL
Polymyxin B	Pseudomonas aeruginosa	broth microdilution	P4 clinical isolate	20 h	–	MIC	4 µg/mL
thiostrepton	Enterococcus faecium	–	VanB vancomycin-resistant	–	–	MIC	≤ 0.03 µg/mL
Polymyxin B	Klebsiella pneumoniae	broth microdilution	K4 parental, KPC-2	–	–	MIC	16 µg/mL

Some of these lines once more:
Molecule	target or system	test	test system	setting	scale	measurement	value
thiostrepton	Enterococcus faecium	–	VanB vancomycin-resistant	–	–	MIC	≤ 0.03 µg/mL
